{"data": "Experimental data pooled from the literature", "note": "Parts stem from different laboratories: compare values within a part only.", "UniProt P42336, sequence (whole entry, unmodified, looked up)": "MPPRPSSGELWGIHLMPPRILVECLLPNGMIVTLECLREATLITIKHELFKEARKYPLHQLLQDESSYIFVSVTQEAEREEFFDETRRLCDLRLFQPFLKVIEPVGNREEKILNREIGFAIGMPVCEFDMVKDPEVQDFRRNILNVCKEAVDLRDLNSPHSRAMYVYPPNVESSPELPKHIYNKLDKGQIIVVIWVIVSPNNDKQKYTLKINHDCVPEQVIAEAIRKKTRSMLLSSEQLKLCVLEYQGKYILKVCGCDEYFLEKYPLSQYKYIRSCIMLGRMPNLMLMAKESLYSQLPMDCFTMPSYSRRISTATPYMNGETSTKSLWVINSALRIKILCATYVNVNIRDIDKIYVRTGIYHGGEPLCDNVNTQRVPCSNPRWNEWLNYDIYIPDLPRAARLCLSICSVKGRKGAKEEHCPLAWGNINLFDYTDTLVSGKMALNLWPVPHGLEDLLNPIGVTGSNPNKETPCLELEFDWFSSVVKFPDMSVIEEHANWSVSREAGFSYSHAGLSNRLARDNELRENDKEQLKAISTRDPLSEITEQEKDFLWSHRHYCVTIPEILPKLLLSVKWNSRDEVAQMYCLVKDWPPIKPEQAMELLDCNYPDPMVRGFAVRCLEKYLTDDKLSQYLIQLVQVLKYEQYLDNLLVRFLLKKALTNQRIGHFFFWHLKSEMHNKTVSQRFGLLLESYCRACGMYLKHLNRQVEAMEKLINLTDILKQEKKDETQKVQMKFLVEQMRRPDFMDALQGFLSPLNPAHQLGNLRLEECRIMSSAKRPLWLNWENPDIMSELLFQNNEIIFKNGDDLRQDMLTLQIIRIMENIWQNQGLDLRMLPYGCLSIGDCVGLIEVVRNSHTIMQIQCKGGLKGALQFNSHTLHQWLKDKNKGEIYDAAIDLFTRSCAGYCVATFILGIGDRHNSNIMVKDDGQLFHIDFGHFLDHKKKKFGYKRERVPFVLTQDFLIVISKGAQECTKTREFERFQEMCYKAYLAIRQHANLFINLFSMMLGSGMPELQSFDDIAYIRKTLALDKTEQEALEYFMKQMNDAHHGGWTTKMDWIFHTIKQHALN", "UniProt Q14680, sequence (whole entry, looked up)": "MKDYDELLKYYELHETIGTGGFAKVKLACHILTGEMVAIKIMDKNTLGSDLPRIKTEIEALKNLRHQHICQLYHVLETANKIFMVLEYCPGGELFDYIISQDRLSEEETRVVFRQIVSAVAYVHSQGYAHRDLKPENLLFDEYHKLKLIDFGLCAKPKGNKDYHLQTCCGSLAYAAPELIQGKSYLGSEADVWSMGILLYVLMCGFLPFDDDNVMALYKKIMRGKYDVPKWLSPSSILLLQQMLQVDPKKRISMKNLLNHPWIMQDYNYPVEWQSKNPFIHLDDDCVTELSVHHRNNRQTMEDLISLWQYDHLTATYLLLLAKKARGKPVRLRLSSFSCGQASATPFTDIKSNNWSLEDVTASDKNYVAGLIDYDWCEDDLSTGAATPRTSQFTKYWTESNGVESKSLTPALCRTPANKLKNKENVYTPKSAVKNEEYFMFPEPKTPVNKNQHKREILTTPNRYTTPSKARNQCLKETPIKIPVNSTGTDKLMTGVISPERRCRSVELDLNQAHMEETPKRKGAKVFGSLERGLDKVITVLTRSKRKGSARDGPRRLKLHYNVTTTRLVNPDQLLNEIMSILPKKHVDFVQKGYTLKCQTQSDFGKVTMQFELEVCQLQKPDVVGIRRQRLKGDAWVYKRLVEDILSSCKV", "UniProt P41595, sequence (whole entry, looked up)": "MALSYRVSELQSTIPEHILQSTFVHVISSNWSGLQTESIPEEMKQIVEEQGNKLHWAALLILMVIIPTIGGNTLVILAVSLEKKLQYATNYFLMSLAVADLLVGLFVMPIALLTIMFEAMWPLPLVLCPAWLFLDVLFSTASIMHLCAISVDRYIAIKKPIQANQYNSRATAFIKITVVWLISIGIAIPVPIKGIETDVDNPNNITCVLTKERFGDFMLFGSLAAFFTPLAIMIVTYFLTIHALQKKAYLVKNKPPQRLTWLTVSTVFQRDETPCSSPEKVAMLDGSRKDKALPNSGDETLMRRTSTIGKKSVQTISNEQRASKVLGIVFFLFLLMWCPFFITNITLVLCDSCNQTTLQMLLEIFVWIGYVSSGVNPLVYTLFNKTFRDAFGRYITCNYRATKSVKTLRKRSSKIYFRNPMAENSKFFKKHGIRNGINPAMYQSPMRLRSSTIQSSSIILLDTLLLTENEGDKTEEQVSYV", "UniProt Q9HBH9, sequence (whole entry, looked up)": "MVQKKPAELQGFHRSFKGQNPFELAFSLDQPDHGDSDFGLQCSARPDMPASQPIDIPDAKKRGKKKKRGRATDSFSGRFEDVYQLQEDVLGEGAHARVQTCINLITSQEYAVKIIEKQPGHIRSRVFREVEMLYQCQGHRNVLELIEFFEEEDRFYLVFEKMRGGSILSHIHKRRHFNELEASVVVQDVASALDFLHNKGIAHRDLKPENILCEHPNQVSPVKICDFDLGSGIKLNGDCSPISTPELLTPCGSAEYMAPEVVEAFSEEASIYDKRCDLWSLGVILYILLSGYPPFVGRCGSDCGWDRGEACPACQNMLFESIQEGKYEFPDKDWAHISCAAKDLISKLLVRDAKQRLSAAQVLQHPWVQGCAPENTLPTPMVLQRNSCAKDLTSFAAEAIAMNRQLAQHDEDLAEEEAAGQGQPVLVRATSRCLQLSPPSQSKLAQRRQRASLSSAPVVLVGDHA", "UniProt Q15759, sequence (whole entry, looked up)": "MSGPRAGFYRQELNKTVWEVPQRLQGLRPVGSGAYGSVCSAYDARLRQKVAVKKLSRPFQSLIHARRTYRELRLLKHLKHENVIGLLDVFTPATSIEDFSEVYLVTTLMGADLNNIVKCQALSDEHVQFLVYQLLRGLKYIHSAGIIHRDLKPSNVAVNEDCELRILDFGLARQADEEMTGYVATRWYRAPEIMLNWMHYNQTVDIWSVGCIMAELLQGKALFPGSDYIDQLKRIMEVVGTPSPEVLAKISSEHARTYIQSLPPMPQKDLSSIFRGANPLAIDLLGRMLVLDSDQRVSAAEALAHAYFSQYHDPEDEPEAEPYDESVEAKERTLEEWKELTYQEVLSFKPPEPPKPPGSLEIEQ", "UniProt P35372, sequence (whole entry, looked up)": "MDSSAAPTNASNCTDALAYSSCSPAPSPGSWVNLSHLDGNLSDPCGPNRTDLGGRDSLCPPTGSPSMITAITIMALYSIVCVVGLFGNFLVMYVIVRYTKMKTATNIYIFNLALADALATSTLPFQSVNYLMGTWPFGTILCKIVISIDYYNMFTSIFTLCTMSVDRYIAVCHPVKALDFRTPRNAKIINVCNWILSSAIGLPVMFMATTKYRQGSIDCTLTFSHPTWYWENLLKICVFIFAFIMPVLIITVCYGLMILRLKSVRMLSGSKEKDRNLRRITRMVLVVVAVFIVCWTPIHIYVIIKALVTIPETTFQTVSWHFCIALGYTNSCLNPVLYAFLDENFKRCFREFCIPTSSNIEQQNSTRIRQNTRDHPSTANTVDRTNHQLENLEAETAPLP", "UniProt P00519, sequence (whole entry, unmodified, looked up)": "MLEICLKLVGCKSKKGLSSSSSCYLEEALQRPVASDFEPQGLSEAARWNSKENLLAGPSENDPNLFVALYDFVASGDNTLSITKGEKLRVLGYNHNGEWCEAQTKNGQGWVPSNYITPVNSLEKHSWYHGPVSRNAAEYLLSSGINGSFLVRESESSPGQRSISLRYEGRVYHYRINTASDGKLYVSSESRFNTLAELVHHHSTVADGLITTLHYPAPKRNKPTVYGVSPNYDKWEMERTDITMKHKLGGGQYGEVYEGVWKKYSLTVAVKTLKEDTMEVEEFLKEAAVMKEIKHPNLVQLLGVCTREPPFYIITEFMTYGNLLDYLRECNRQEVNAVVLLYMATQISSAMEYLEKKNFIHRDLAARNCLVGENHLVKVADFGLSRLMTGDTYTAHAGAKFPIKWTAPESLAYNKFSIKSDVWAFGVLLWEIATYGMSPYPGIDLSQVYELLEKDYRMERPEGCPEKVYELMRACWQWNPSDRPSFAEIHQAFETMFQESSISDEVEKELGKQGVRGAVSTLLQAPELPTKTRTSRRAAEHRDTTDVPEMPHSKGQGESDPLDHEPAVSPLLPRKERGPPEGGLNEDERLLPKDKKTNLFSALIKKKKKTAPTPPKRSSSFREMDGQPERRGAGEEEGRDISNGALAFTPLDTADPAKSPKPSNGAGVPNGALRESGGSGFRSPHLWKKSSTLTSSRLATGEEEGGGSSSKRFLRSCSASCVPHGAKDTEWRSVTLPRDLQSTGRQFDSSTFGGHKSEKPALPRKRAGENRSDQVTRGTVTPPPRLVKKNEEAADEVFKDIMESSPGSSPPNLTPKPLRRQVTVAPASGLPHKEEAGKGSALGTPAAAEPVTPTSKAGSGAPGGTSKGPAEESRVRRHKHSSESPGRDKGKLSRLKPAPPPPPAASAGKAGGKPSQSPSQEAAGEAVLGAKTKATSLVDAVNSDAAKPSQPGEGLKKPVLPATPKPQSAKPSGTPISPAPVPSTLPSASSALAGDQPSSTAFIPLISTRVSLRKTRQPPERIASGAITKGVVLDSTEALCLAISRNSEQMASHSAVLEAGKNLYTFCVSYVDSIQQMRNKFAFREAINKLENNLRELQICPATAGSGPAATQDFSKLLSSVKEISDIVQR"}
{"data": "Study 1", "SMILES": "NC(N)=NC(=O)c1nc(Cl)c(N2CCCCCC2)nc1N", "read-out": "β-arrestin recruitment", "mode": "agonist", "technique": "PRESTO-Tango", "concentration": "10 µM", "baseline": "untreated"}
{"target": "Probable G-protein coupled receptor 156 (GPR156, Homo sapiens, UniProt Q8NFN8)", "fold over basal": 1.08}
{"target": "HTR2B (Homo sapiens, UniProt P41595)", "fold over basal": 0.99}
{"target": "CRHR1 (Homo sapiens, UniProt P34998)", "fold over basal": 1.25}
{"target": "C-C chemokine receptor-like 2 (Homo sapiens, UniProt O00421)", "fold over basal": 0.96}
{"target": "OPRM1 (Homo sapiens, UniProt P35372)", "fold over basal": 3.95}
{"data": "Study 2", "target": "Calcium/calmodulin-dependent protein kinase type II subunit alpha (CAMK2A, Homo sapiens, UniProt Q9UQM7)", "read-out": "enzyme activity", "mode": "inhibitor", "concentration": "10 µM", "UniProt Q9UQM7, sequence (whole entry, looked up)": "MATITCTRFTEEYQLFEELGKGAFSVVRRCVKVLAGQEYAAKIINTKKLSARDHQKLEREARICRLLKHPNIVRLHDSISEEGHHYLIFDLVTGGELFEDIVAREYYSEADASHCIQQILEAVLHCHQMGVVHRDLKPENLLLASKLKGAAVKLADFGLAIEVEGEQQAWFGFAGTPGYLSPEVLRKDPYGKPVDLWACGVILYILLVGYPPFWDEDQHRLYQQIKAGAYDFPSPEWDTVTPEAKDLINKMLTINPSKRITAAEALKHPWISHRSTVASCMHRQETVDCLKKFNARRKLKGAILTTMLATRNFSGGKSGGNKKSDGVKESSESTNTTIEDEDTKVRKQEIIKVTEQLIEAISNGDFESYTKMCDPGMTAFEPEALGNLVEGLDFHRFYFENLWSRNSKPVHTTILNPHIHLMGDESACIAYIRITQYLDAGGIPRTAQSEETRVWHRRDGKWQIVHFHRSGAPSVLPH"}
{"SMILES": "COc1ccc(C(=O)/C=C/c2ccc(O)cc2)c(O)c1CC=C(C)C", "inhibition [%]": -43}
{"SMILES": "Oc1ccc([C@H]2Oc3cc(O)cc(O)c3C[C@H]2O)cc1", "inhibition [%]": -43}
{"SMILES": "CC1(C)CC[C@]2(C(=O)O)CC[C@]3(C)C(=CC[C@@H]4[C@@]5(C)CC[C@H](O)C(C)(C)[C@@H]5CC[C@]43C)[C@@H]2C1", "inhibition [%]": 13}
{"SMILES": "CCCCCCCC/C=C/CCCCCCCC(=O)OC[C@H]1O[C@@H](n2ccc(N)nc2=O)C(F)(F)[C@@H]1O", "inhibition [%]": 0}
{"SMILES": "CN1CCC(=C2c3ccccc3CCn3c(C=O)cnc32)CC1", "inhibition [%]": 2}
{"SMILES": "N=C(N)c1ccc(/N=N/Nc2ccc(C(=N)N)cc2)cc1", "inhibition [%]": -10}
{"SMILES": "O=C(Oc1ccccc1C(=O)O)c1ccccc1O", "inhibition [%]": -8}
{"SMILES": "CCCCCCCCCCCCCCCC=O", "inhibition [%]": -6}
{"SMILES": "O=c1[nH]c2ccccc2n1CCN1CCN(c2cccc(C(F)(F)F)c2)CC1", "inhibition [%]": 0}
{"SMILES": "CCOC(=O)c1c(C)cc(O)cc1O", "inhibition [%]": -8}
{"data": "Study 3", "organism": "Sarcocystis neurona", "read-out": "parasite growth", "concentration": "10 µM"}
{"Compound": "C#C[C@]1(O)CC[C@H]2[C@@H]3CCc4cc(OC)ccc4[C@H]3CC[C@@]21C", "inhibition [%]": -43.9}
{"Compound": "Cc1ccc(S(=O)(=O)NC(=O)NN2CCCCCC2)cc1", "inhibition [%]": -20.2}
{"Compound": "CCOC(=O)C1=C(C)NC(C)=C(C(=O)OC)C1c1cccc([N+](=O)[O-])c1 (centres unmarked)", "inhibition [%]": 8.5}
{"Compound": "COC(=O)C[C@](O)(CCCC(C)(C)O)C(=O)O[C@@H]1C(OC)=C[C@]23CCCN2CCc2cc4c(cc2[C@H]13)OCO4", "inhibition [%]": 99.6}
{"Compound": "O=c1n(CCCN2CCN(c3cccc(Cl)c3)CC2)nc2ccccn12", "inhibition [%]": -27.6}
{"Compound": "C[C@@H]1C[C@H]2[C@@H]3C[C@H](F)C4=CC(=O)C(Cl)=C[C@]4(C)[C@@]3(F)[C@@H](O)C[C@]2(C)[C@@]1(O)C(=O)CO", "inhibition [%]": 7.6}
{"Compound": "CC(C)(S)[C@@H](N)C(=O)O", "inhibition [%]": -23.6}
{"Compound": "CCN(CC)CCOc1ccc(C(=C(Cl)c2ccccc2)c2ccccc2)cc1", "inhibition [%]": 2.3}
{"Compound": "CCCOc1ccc(C(=O)OCCN(CC)CC)cc1N", "inhibition [%]": -27.7}
{"data": "Study 4", "Structure (SMILES)": "COc1cccc(CNC(=O)c2nc3scc(COCc4ccc(C(=O)O)cc4)c3c(=O)[nH]2)c1", "read-out": "cell-free assay", "technique": "competition with immobilised ligand", "concentration": "1 µM"}
{"target": "CDK13 (Homo sapiens, UniProt Q14004)", "remaining binding [%]": 67.6}
{"target": "EGFR (Homo sapiens, UniProt P00533, del747-750/T751S)", "remaining binding [%]": 74}
{"target": "FLT3 (Homo sapiens, UniProt P36888, D835H)", "remaining binding [%]": 92.9}
{"target": "CSNK1D (Homo sapiens, UniProt P48730)", "remaining binding [%]": 100}
{"target": "WNK3 (Homo sapiens, UniProt Q9BYP7)", "remaining binding [%]": 83.6}
{"target": "MKNK2 (Homo sapiens, UniProt Q9HBH9)", "remaining binding [%]": 73.2}
{"target": "MAPK11 (Homo sapiens, UniProt Q15759)", "remaining binding [%]": 100}
{"target": "SBK1 (Homo sapiens, UniProt Q52WX2)", "remaining binding [%]": 53.7}
{"target": "EGFR (Homo sapiens, UniProt P00533, T790M)", "remaining binding [%]": 92.1}
{"target": "Tyrosine-protein kinase ABL1, non-phosphorylated (ABL1, Homo sapiens, UniProt P00519, F317L)", "remaining binding [%]": 78.7}
{"target": "STK32C (Homo sapiens, UniProt Q86UX6)", "remaining binding [%]": 89.6}
{"target": "PIK3CA (Homo sapiens, UniProt P42336, Q546K)", "remaining binding [%]": 70.4}
{"target": "MAP3K4 (Homo sapiens, UniProt Q9Y6R4)", "remaining binding [%]": 86.6}
{"target": "MAP3K6 (Homo sapiens, UniProt O95382)", "remaining binding [%]": 74.5}
{"target": "PIK3CA (Homo sapiens, UniProt P42336, E542K)", "remaining binding [%]": 76.1}
{"target": "EGFR (Homo sapiens, UniProt P00533, del746-750)", "remaining binding [%]": 80.4}
{"target": "MELK (Homo sapiens, UniProt Q14680)", "remaining binding [%]": 100}
{"note": "A few entries again (study 4):"}
{"target": "FLT3 (Homo sapiens, UniProt P36888, D835H)", "remaining binding [%]": 92.9}
{"target": "MAPK11 (Homo sapiens, UniProt Q15759)", "remaining binding [%]": 100}
{"target": "PIK3CA (Homo sapiens, UniProt P42336, E542K)", "remaining binding [%]": 76.1}
{"target": "CDK13 (Homo sapiens, UniProt Q14004)", "remaining binding [%]": 67.6}
{"target": "STK32C (Homo sapiens, UniProt Q86UX6)", "remaining binding [%]": 89.6}
{"target": "Tyrosine-protein kinase ABL1, non-phosphorylated (ABL1, Homo sapiens, UniProt P00519, F317L)", "remaining binding [%]": 78.7}
{"target": "MKNK2 (Homo sapiens, UniProt Q9HBH9)", "remaining binding [%]": 73.2}
